Experimental data pooled from the literature.
Every numbered part comes from another study and shows a few of its results, in no order.

Sample 1 — method: protein-binding microarray; molecule type: double-stranded DNA, one strand shown; matrix: in vitro; tested at: 250 nM; notes: 60-bp whole probe; with: salmon DNA 0.4 mg/ml; baseline: random background probes; direction: higher = stronger binding; endpoint: log fluorescence
Target: Interferon regulatory factor 7, full length, phosphomimetic (IRF7, Homo sapiens, UniProt Q92985, residues 1-503, S101K/S471D/S472D/S475D/S476D/S477D/S483D/S484D/S487D)
Residues (chain): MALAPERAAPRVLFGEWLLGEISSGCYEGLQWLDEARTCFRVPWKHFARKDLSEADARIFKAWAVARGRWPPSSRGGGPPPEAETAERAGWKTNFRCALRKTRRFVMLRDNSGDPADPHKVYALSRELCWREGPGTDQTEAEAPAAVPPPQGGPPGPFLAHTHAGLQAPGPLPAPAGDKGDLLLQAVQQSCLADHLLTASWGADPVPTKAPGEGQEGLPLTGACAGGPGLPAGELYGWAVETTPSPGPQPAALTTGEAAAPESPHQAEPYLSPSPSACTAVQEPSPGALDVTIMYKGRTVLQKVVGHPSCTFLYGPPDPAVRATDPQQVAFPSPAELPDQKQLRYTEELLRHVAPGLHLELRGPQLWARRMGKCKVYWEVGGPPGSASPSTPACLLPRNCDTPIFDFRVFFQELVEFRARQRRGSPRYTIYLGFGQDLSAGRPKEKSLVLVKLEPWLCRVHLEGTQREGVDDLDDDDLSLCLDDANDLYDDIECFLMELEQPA
GCCTAGCACTCATATATGTGTATATAACTGTGCTAGGTCTTGATTCGCTTGACGCTGCTG: 0.751 z-score
GCCTAGCACTTAAGTATCGGACTGGGTTAGTGCTAGGTCTTGATTCGCTTGACGCTGCTG: 0.317 z-score
GCCTAGCACCGTATCTTCATTGTCATGTAGTGCTAGGTCTTGATTCGCTTGACGCTGCTG: 1.73 z-score
GCCTAGCACTAGTCTCTTCTGCAGCCTTTGTGCTAGGTCTTGATTCGCTTGACGCTGCTG: 0.463 z-score

Sample 2 — method: RNA Bind-n-Seq; molecule type: RNA; matrix: in vitro; tested at: 365 nM; baseline: no-protein control; direction: higher = stronger binding; endpoint: RBNS enrichment (R)
Target: RNA binding protein fox-1 homolog 2, RRM domain, GST-SBP tag (RBFOX2, Homo sapiens, UniProt O43251-10, residues 100-194)
Notes: natural RNA segment, single round, ends assumed
GGGAGUUCUACAGUCCGACGAUCCUGCAUCUUUAUAUUUUUAAAAUUGUAUUGCUGCUCAAGAAUGGUACCCUCUUGUCAAAAAGGCAUACAUUCAUAAUUGUACAUUCAGCAUUGUAAAUAAUCUUAUGAAAUGGAAUUCUCGGGUGCCAA: 0.89
GGGAGUUCUACAGUCCGACGAUCACAAUGACGCAUUUUAAUCUACCUUUGUCUUAAUUUACAGCAGGUUUUGUAUGAAUUUUUAACCUUUUAACAAACUCCCAAAUCUGGUUGAUGCCUUUGACAGUGAUGAAUGGAAUUCUCGGGUGCCAA: 1
GGGAGUUCUACAGUCCGACGAUCUUAGAAAGCCCGGUGUUUUUCUGUGAUAUUAGAUGUCCUCCGAGCACAGCCCACUUGGAUUUGUUUGUUUGGUUUUGCCUUGAGACUGGGUCUCACUAUACAGAGCAGCCUGGAAUUCUCGGGUGCCAA: 1.3

Sample 3 — method: universal PBM; molecule type: double-stranded DNA, one strand shown; matrix: in vitro; tested at: 600 nM; direction: higher = stronger binding; endpoint: E-score
Target: Sal-like protein 4, full length isoform A (SALL4, Homo sapiens, UniProt Q9UJQ4, residues 1-1053)
Chain of UniProt Q9UJQ4 (whole entry, looked up): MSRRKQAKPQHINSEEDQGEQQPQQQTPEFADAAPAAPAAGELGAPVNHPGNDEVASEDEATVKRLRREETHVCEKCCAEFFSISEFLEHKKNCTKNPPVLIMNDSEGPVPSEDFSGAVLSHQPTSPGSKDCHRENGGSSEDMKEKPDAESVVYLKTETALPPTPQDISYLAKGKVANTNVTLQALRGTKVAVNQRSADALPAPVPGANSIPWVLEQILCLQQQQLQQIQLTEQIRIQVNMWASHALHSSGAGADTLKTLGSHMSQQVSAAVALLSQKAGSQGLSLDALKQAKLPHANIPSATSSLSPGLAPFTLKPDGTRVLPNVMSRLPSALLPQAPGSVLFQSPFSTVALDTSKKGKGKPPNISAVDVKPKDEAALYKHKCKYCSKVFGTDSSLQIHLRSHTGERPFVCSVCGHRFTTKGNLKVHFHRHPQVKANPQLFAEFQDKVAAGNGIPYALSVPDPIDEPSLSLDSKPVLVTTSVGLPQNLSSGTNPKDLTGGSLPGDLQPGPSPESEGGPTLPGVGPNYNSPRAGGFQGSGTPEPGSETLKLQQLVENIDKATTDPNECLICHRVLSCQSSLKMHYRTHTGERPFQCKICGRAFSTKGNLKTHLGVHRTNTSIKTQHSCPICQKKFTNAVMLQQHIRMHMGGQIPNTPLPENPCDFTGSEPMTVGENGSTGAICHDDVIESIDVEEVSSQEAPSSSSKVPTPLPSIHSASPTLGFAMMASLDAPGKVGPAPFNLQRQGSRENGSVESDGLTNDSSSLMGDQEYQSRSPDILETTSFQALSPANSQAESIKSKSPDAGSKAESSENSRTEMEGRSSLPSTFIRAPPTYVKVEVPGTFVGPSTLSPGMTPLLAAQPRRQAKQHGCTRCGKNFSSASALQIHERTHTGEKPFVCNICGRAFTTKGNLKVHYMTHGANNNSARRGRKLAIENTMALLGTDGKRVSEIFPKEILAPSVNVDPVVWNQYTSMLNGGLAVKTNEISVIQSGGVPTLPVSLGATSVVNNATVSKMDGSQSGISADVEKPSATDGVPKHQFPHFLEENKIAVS
Notes: 8-mer, flanks averaged, mean of replicates
AACATAGG: 0.117
TTAAAAAA: 0.368
CGGATCAC: -0.148
ATCAGGGA: 0.00315

Further values, each from its own experiment
PhoQ, residues 284 288 289 292 302 303 SSYNSA — fold induction (PhoP, residues 12 14 15 18 19 SPWRL (Escherichia coli, UniProt P23836); Sort-seq, item: YFP reporter; E. coli; PhoQ-PhoP variant library, with: 10 µM Mg2+; baseline: high Mg2+ state, higher = stronger signaling): 0.892

A few entries again (sample 3):
TTAAAAAA: 0.368
